Assay results from different studies.
Numbered parts are unrelated; each lists some results of a single study.

Sample 1 — cell line: HEK-293T; read-out: pseudovirus infection; technique: FDA-approved drug library screen; organism: VSV pseudotyped with SARS-CoV-2 spike; concentration: 10 µM; time: 16 h; reference: vehicle-treated
SMILES	GFP-positive cells
CCOc1cc(CC(=O)N[C@@H](CC(C)C)c2ccccc2N2CCCCC2)ccc1C(=O)O	65.8%
COc1cc(NC(C)CCCN)c2ncccc2c1 (stereo not drawn)	51.9%
C#C[C@]1(O)CC[C@H]2[C@@H]3CCc4cc(O)ccc4[C@H]3CC[C@@]21C	104%
Cc1cn([C@H]2C=C[C@@H](CO)O2)c(=O)[nH]c1=O	101%

Sample 2 — mode: inhibitor; concentration: 20 µM
Target: Replicase polyprotein 1ab, nsp13 helicase (rep, Severe acute respiratory syndrome coronavirus 2, UniProt P0DTD1)
Compound	inhibition [%]
Cc1nnc(SCC2=C(C(=O)O)N3C(=O)[C@@H](NC(=O)Cn4cnnn4)[C@H]3SC2)s1	3.88
Nc1nc(Nc2ccc3c(c2)CC[C@@H](N2CCCC2)CC3)nn1-c1cc2c(nn1)-c1ccccc1CCC2	79.8
O=C1C=Cc2cc(Br)ccc2C1=O	100
C[C@@H](O[C@H]1OCCN(Cc2n[nH]nc2CN(C)C)[C@H]1c1ccc(F)cc1)c1cc(C(F)(F)F)cc(C(F)(F)F)c1	2.63
CN[C@@H]1[C@H](O)[C@H](NC)[C@H]2O[C@@]3(O)C(=O)C[C@@H](C)O[C@H]3O[C@@H]2[C@H]1O	2.59
CC(C)(C)NCC(O)COc1cccc2c1C[C@H](O)[C@H](O)C2 (mixture of isomers)	3.8
CC(CN(C)C)CN1c2ccccc2Sc2ccc(C#N)cc21 (stereo not drawn)	6.5
CC(C)(C)c1ccc(C(=O)Nc2cn3cc(-n4ccnc4)ccc3n2)cc1	5.87
c1ccc2nc(N3CCNCC3)ccc2c1	1.85
CCC(CC)[C@H](NC(C)=O)[C@@H]1[C@H](O)[C@@H](C(=O)O)C[C@H]1NC(=N)N	2.76
Cc1cc(CCC[C@H](CC(=O)NO)C(=O)N[C@H](C(=O)N[C@H](C)c2ccccc2)C(C)(C)C)ccc1-c1ccccc1	6.06
COc1ccc(-c2cc(=O)c3c(OC)c(OC)c(OC)c(OC)c3o2)cc1OC	1.93
C[C@@H]1NC(C)(C)CO[C@@]1(O)c1cccc(Cl)c1	6.92
C=C1[C@@H](C)[C@H]2[C@H](Cc3ccccc3)NC(=O)[C@]23OC(=O)/C=C/[C@H](O)CCC[C@@H](C)C/C=C/[C@H]3[C@@H]1O	1.51
CNC(=O)[C@@H](Cc1ccccc1)N(C)C(=O)[C@@H](Cc1ccc2ccccc2c1)N(C)C(=O)/C=C/CC(C)(C)N	1.89
CCC[N@+]12[C@H](O)[C@@H](CC)[C@@H]3C[C@H]1[C@@H]1N(C)c4ccccc4[C@]14C[C@H]2[C@H]3[C@H]4O	4.74
COc1ccc(C[C@@H](C)[C@@H](C)Cc2ccc(OC)c(OC)c2)cc1OC	3.99
Oc1ccc(O)cc1	4.67
CN1c2cc3c(cc2N=C(c2ccc(C(=O)O)cc2)c2ccccc21)C(C)(C)CCC3(C)C	2.86
C[C@@H]1C[C@H]2[C@@H]3CCC4=CC(=O)C=C[C@]4(C)[C@@]3(Cl)[C@@H](O)C[C@]2(C)[C@@]1(OC(=O)c1ccco1)C(=O)CCl	0.17
Cc1ccc(C(=O)Nc2ccc(CN3CCN(C)CC3)c(C(F)(F)F)c2)cc1C#Cc1cnc2cccnn12	12.8
NCC(CS(=O)(=O)O)c1ccc(Cl)cc1 (stereo not drawn)	1.3
O=C(Nc1cnccc1Cl)N1CCN(Cc2ccc3c(c2)OC(F)(F)O3)CC1	0.49
Cc1c(C)c(NCC(=O)N(C)C2CCN(Cc3ccc(C(N)=O)cc3)CC2)c(C)c(C)c1N	8.46
Cn1cccc1/C=C1\C(=O)NC(=O)c2ccccc21	10.3

Sample 3 — technique: protein-binding microarray; molecule type: double-stranded DNA, one strand shown; medium: in vitro; concentration: 940 nM top; notes: 60-bp whole probe; together with: salmon DNA 0.4 mg/ml; reference: random background probes; reading: higher = stronger binding; constant ends, left off below: GCCTAGCAC … GTCTTGATTCGCTTGACGCTGCTG
Target: Interferon regulatory factor 5, full length, phosphomimetic (IRF5, Homo sapiens, UniProt Q13568-2, residues 1-514, S451D/S453D/S456D/S462D)
Sequence	fitted relative affinity [z-score]
GACGGTATCGGTCTCGGGAGGTGCTAG	7.6
GTAGGTCTCGGTCTCGGTTAGTGCTAG	5.04
TTAGGACTGCACTTTCGGTTAGTGCTA	2.99
CCCCTACTGTATTTGGCCAGGTGCTAG	0.216
GACGGTTTCCTTTTCCTGATGTGCTAG	1.99
GACGATATCAGTTTTGAGACGTGCTAG	0.113
AGAGAGAGAGAGAGAGAGAGGTGCTAG	0.651
TCAGAGTTCTGTTGCAAACTGTGCTAG	-0.59

Sample 4 — organism: SARS-CoV-2; read-out: cytopathic effect; cells: Vero E6; concentration: 10 µM
SMILES	inhibition [%]
COc1ccc(C(=O)n2nc(-c3ccccc3)nc2N)cc1OC	5.6
Oc1cc2c(cc1O)[C@H]1c3ccccc3CN[C@@H]1CC2 (racemic)	16.7
CC(=O)OC[C@H]1O[C@@H]([S-])[C@H](OC(C)=O)[C@@H](OC(C)=O)[C@@H]1OC(C)=O.CCP(CC)CC.[Au+]	-29.9
CCN(CC)C(=S)SSC(=S)N(CC)CC	-21.6

Sample 5 — technique: protein binding microarray; molecule type: double-stranded DNA, one strand shown; medium: in vitro; concentration: not given; reference: not given; reading: higher = stronger binding
Target: Histone acetyltransferase KAT6A, both winged helices, GST fusion (KAT6A, Homo sapiens, UniProt Q92794, residues 1-181)
Notes: 8-mer, flanks averaged, mean of 2 arrays, mostly near background
Residues (chain): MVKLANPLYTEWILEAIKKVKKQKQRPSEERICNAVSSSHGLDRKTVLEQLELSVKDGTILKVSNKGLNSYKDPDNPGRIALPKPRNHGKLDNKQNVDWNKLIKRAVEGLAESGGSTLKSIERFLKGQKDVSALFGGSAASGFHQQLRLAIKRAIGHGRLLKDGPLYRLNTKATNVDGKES
Sequence	E-score
TCACAAGA	-0.0401
CATCATCA	-0.0832
AGCAAGTG	-0.314
CCGCCTGC	0.188
CTCCGGAC	0.0689
TAATGCAA	-0.217
TTCCGCAA	0.0776
ACGACATG	-0.137

Sample 6 — technique: RNA Bind-n-Seq; molecule type: RNA; medium: in vitro; concentration: 100 nM; reference: input RNA pool; reading: higher = stronger binding
Target: RING finger protein unkempt homolog, zinc fingers 1-6, SBP tag (UNK, Homo sapiens, UniProt Q9C0B0, residues 30-357)
UniProt Q9C0B0, sequence (30-357, looked up): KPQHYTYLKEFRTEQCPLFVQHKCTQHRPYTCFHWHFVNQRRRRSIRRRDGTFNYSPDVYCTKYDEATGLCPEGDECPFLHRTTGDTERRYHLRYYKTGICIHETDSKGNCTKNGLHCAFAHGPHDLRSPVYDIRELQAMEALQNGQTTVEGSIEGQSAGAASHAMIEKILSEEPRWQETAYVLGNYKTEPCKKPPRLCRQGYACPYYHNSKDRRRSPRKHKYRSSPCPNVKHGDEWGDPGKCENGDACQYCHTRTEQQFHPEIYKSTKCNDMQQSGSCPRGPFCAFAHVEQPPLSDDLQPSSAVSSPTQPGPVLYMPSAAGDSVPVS
Notes: RNA with constant flanks, vertebrate orthologous sites, ends assumed
Constant ends, left off below: GGGAGUUCUACAGUCCGACGAUC … CAACAGAGGAUUGAGCAUCA
Sequence	bound/input enrichment
AGAAAAUUUUAACCAUGAAUCUGAAAGUAGAAAUACAGGUCCAUGGUUAUCUUCCUCACUUAGAAAUAGAUGCACACCUUUGUUCUCUAGAAGGAGAAGAGAGGGAAGAGAUGAAUCUUC	0.953 ratio
CCCUGUGUUGGCCCUGGGGAGCUGCUGGGUGCUUAGCAUUUUUUGAUUUUGACAUUGACAUAAUAGAUAGGCUUGUGGGUUGUUUUGUUUUUGUUUUUUAAUUUAAAAAUAUUAAGACUU	1.07 ratio
CCCUCAACUUGUUCUAGCUUGUGAUCCUUCAGAGUUGGAUCAGGCGUUAGUUCUAGGUACUAGAAAUGUUCAUUUCCCUAUCGCCAUUGAUCAGAGACAAAUAAUUAAAAACCAGAAAUA	0.811 ratio
UGGGUUACUCCUAUUAUUAUCAAGUAGCUGGAAUUGUGAAGGUCGGAGUAGUUAGAUCUUUAGCUUUUAUUCCUUAUUUUUUUGUAUUACUAUCCAUGUGUAUAAAUUAUUGAUCAUGUU	3.14 ratio
GCUCUAUAACAAGUAGAAUGAGCUCCCCUUUCUACUUCUUCCGGGAGCAAAACCCCCCAAAAAAUUCCAGACACAUCUGAUUAUACUGUUCUGUUUUUGGUUUUUAUUAUUUUUACAUAU	1.36 ratio
UAUAAGAACUCGUGCAGUCUUAGAUGUUUUAAAAAUAUAUAUCUGAAUUGUAAGAGUUGUUAGCACAAGUUUUUUUUUUUUAAGCACUUGUUUUGGGUACAAGGCAUUUCUGACAUUUUA	0.297 ratio
CUGAAGCUUUGUGUUUGGCUGCACCUGCAUAAGCUGCUACAAAUAGAAUAAAGAAUUUCGUAGCCUGUAUCUAUCAUUUAGAUGCAUGGAAAAAAAUGGGCUUUGCACACAAUGGGUUUG	1.59 ratio
ACCCCGAUUUUAGAUGUGAUAUCUAGGCUUUCAUUCCAGUUUGUUUUGUCUUUUCUUGUUUAGAUAACCAACCUUUUAAAUUCUUGCAUUUUAGUAAGAAAGCUACCUUUUUAUGGAUGU	0.703 ratio

Repeated from above (sample 6):
Sequence	bound/input enrichment
AGAAAAUUUUAACCAUGAAUCUGAAAGUAGAAAUACAGGUCCAUGGUUAUCUUCCUCACUUAGAAAUAGAUGCACACCUUUGUUCUCUAGAAGGAGAAGAGAGGGAAGAGAUGAAUCUUC	0.953 ratio
CCCUGUGUUGGCCCUGGGGAGCUGCUGGGUGCUUAGCAUUUUUUGAUUUUGACAUUGACAUAAUAGAUAGGCUUGUGGGUUGUUUUGUUUUUGUUUUUUAAUUUAAAAAUAUUAAGACUU	1.07 ratio
CCCUCAACUUGUUCUAGCUUGUGAUCCUUCAGAGUUGGAUCAGGCGUUAGUUCUAGGUACUAGAAAUGUUCAUUUCCCUAUCGCCAUUGAUCAGAGACAAAUAAUUAAAAACCAGAAAUA	0.811 ratio
UGGGUUACUCCUAUUAUUAUCAAGUAGCUGGAAUUGUGAAGGUCGGAGUAGUUAGAUCUUUAGCUUUUAUUCCUUAUUUUUUUGUAUUACUAUCCAUGUGUAUAAAUUAUUGAUCAUGUU	3.14 ratio
GCUCUAUAACAAGUAGAAUGAGCUCCCCUUUCUACUUCUUCCGGGAGCAAAACCCCCCAAAAAAUUCCAGACACAUCUGAUUAUACUGUUCUGUUUUUGGUUUUUAUUAUUUUUACAUAU	1.36 ratio
UAUAAGAACUCGUGCAGUCUUAGAUGUUUUAAAAAUAUAUAUCUGAAUUGUAAGAGUUGUUAGCACAAGUUUUUUUUUUUUAAGCACUUGUUUUGGGUACAAGGCAUUUCUGACAUUUUA	0.297 ratio
